Results gathered from unrelated publications.
Compare with care: the assays were run in different laboratories. Values joined by “and” are separate records of one study, mostly repeats; a detail may differ. ± gives the spread as reported.
Dehaloperoxidase B ferric: Dehaloperoxidase B, ferric (Amphitrite ornata, UniProt Q9NAV7)
MT-CYB/UQCRFS1: MT-CYB/UQCRFS1 (Homo sapiens, UniProt P00156+P47985)
Chain of UniProt Q16774 (whole entry, unmodified, looked up): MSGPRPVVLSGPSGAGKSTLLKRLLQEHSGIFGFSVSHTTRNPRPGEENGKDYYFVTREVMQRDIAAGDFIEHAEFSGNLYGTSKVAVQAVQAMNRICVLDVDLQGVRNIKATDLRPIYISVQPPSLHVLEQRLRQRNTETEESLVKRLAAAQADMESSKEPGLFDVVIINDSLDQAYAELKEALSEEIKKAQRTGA
Chain of UniProt P00156 (whole entry, looked up): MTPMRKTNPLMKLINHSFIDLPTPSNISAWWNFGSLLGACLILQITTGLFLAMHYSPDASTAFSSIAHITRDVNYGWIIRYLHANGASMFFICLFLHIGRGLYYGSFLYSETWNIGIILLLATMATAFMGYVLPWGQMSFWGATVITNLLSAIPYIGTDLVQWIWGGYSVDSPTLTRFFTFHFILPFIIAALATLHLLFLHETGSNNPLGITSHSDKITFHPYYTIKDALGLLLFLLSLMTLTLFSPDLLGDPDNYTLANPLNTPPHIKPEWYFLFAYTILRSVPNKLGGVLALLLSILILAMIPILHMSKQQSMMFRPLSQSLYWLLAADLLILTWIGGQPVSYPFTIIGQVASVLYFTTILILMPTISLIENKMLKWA
Chain of UniProt P47985 (whole entry, looked up): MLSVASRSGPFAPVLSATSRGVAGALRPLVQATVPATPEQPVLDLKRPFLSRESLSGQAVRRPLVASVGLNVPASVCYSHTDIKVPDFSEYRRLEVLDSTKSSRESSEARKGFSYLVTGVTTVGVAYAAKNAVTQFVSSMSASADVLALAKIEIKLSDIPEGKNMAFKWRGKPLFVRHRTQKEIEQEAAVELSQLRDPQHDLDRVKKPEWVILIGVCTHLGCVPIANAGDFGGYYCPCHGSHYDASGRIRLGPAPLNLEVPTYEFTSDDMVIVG
Chain of UniProt P11388 (whole entry, looked up): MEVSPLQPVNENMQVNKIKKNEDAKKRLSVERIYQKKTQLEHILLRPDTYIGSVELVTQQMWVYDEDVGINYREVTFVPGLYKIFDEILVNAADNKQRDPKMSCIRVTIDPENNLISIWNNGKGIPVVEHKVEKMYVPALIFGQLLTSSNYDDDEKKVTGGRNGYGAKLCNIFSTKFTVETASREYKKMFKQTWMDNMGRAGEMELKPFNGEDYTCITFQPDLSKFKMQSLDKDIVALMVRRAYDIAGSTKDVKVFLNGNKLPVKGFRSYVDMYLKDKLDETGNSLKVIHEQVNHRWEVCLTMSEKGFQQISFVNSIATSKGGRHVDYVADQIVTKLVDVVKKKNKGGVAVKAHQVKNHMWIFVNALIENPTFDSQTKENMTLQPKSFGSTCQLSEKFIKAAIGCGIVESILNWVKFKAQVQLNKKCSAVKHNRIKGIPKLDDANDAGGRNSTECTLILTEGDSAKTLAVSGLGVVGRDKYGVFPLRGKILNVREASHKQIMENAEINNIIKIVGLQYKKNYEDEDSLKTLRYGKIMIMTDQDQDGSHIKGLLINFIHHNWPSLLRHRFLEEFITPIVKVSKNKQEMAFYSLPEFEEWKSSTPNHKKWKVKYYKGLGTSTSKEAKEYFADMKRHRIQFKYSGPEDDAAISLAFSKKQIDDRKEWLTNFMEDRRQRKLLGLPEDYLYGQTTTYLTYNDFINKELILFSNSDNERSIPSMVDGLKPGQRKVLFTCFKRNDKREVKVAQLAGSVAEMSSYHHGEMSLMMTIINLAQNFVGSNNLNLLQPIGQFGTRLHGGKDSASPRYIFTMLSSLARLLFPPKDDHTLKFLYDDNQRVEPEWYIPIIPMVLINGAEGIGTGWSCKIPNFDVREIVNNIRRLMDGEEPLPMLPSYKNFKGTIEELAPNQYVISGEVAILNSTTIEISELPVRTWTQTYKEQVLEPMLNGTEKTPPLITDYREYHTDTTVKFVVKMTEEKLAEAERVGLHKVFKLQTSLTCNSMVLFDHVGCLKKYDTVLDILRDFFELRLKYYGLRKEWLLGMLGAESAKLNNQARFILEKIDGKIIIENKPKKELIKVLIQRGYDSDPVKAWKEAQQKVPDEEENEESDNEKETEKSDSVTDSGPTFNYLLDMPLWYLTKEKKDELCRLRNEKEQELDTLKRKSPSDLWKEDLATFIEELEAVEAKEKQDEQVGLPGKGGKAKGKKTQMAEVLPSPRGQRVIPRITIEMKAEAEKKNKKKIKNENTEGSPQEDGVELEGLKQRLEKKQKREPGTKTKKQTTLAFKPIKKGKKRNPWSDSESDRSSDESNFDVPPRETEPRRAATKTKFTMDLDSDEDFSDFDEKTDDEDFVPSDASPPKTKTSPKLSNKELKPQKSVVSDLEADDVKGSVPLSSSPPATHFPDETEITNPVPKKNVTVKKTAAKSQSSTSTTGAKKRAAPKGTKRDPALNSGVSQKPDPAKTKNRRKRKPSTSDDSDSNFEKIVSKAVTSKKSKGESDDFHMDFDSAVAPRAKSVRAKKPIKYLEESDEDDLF
Chain of UniProt Q8NB16 (whole entry, looked up): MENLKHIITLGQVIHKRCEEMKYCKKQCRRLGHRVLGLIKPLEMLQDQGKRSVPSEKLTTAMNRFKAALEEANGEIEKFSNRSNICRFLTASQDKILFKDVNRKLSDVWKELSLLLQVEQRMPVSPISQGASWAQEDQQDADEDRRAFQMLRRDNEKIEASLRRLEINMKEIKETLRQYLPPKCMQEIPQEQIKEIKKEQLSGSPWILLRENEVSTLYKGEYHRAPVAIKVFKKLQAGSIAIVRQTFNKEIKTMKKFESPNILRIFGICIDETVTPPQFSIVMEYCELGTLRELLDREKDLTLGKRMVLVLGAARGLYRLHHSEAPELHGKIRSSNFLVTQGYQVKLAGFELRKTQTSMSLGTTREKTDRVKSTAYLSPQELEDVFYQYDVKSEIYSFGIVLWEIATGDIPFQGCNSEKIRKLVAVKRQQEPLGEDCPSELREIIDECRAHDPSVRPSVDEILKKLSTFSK
Chain of UniProt O43169 (whole entry, looked up): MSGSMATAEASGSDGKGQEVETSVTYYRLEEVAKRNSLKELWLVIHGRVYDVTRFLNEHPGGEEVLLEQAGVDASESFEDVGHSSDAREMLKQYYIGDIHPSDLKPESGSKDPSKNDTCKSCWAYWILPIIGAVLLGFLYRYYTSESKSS
Chain of UniProt Q62351 (whole entry, looked up): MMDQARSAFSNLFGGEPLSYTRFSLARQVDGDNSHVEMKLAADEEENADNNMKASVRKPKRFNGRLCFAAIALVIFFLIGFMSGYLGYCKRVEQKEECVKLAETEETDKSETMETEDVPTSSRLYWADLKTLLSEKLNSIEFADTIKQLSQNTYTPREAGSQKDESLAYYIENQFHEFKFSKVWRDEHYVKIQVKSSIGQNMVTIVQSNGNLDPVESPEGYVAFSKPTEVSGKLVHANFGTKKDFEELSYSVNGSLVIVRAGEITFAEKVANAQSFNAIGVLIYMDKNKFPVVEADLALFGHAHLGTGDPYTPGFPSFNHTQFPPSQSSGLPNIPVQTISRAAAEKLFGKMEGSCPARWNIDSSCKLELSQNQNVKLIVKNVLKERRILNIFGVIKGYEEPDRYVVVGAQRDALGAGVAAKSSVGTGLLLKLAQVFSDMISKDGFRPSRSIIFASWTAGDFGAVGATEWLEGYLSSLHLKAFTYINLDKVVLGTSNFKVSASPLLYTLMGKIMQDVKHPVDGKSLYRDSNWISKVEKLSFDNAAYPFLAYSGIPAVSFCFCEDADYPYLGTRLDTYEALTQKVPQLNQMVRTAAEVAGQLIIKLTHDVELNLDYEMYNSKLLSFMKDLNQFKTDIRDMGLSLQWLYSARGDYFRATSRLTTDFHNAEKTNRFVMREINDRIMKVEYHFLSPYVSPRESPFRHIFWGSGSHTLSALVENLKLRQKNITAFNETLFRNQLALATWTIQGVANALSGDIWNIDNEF
Chain of UniProt P09874 (whole entry, looked up): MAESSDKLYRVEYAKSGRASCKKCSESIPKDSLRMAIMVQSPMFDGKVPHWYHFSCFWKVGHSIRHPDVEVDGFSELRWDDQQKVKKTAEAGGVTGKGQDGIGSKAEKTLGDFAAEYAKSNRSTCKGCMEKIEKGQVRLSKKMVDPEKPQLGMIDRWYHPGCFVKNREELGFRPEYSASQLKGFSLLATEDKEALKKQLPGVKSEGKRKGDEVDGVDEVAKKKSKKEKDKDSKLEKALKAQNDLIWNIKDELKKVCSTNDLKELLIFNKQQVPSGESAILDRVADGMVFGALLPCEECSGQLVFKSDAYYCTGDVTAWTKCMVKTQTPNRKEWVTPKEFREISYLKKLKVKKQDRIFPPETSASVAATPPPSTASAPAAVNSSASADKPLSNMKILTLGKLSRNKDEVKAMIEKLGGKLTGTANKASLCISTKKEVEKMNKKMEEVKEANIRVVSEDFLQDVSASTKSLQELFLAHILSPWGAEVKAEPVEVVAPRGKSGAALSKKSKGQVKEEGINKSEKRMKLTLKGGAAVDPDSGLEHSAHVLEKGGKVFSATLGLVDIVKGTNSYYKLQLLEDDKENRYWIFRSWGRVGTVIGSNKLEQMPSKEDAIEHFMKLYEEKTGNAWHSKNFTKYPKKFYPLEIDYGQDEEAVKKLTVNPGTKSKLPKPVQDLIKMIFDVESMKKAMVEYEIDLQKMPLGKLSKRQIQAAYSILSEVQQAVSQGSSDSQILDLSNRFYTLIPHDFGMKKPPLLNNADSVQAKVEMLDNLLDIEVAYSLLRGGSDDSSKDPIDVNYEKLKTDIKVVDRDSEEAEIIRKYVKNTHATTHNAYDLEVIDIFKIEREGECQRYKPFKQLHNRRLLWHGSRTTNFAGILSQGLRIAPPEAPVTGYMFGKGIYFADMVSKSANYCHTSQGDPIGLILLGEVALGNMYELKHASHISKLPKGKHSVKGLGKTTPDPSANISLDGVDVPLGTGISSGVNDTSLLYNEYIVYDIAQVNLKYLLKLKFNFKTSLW
Chain of UniProt P00441 (whole entry, unmodified, looked up): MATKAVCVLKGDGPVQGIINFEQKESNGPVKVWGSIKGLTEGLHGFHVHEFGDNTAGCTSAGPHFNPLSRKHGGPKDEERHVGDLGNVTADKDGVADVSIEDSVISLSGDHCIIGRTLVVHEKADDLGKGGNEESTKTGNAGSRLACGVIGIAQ

| Structure (SMILES) | target | test | system | setting | scale | measurement | value |
| --- | --- | --- | --- | --- | --- | --- | --- |
| O=C(O)CCCc1cc2cc(Cl)ccc2n1S(=O)(=O)c1ccc2ncsc2c1 | Peroxisome proliferator-activated receptor alpha (Rattus norvegicus, UniProt P37230) | receptor activation, agonist | – | species rat | reference: internal control agonist | Emax | 37% |
| Brc1ccc2[nH]ccc2c1 | Dehaloperoxidase B ferric | peroxidase activity, substrate, HPLC | – | 10 µM, 5 min, pH 7, together with: H2O2, enzyme 500 µM | – | substrate conversion | 48.1% |
| COc1cc(-c2cncc3c2CN(C)Cc2cc(N4CCNCC4)ccc2-3)cc(OC)c1OC | Serine/threonine-protein kinase VRK2 (VRK2, Homo sapiens, UniProt Q86Y07) | kinase activity | – | 1 µM, human enzyme, together with: ATP 10 µM | reference: DMSO control | remaining activity | 101% |
| Nc1nc2c(ncn2[C@@H]2O[C@H](COP(=O)(O)O)[C@@H](O)[C@H]2O)c(=O)[nH]1 | GUK1 (Homo sapiens, UniProt Q16774, T83A) | enzyme activity, NADH-coupled | – | 31.25 µM | – | reaction rate | 7.26 s⁻¹ and 4.77 s⁻¹ and 6.69 s⁻¹ |
| O=C1OC2COC(=O)C2C=C1NC(=O)c1ccc(Cl)cc1 (stereo not drawn) | Protein lin-28 homolog A (Mus musculus, UniProt Q8K3Y3) | – | – | – | – | Hill slope | -0.6 |
| CCN(CCO)CCCC(C)Nc1ccnc2cc(Cl)ccc12 (stereo not drawn) | Protein transport protein Sec61 subunit alpha isoform 1 (Homo sapiens, UniProt P61619) | Sec61-dependent translocation, inhibitor, refers to: CD4 signal peptide-FLuc reporter | HEK293 | concentration not given | reference: mock | FLuc/RLuc ratio | 0.97 |
| CC[C@@H](C)[C@@H](NC(=O)[C@@H](Cc1ccc(O)cc1)NC(=O)[C@H]1CCCN1C(=O)[C@@H](CCCNC(=N)N)NC(=O)[C@H](N)Cc1c[nH]cn1)C(=O)N[C@H](C)C(=O)N[C@H](Cc1c[nH]cn1)C(=O)N[C@H](CCCNC(=N)N)C(=O)N[C@@H](C(=O)N[C@H](Cc1ccc(O)cc1)C(=O)N[C@H](CO)C(=O)N[C@H](Cc1ccccc1)C(N)=O)C(C)C | Transferrin receptor protein 1 (Tfrc, Mus musculus, UniProt Q62351) | flow cytometry | DC2.4 | 48 h, pH 6, replicate 3, unit not given | reference: 0 h | surface TFRC expression | 0.915 |
| CN(C)C(=O)C(CCN1CCC(O)(c2ccc(Cl)cc2)CC1)(c1ccccc1)c1ccccc1 | Calcium-activated potassium channel subunit alpha-1, with LRRC26 γ1 subunit (KCNMA1, Homo sapiens, UniProt Q12791) | BK channel conductance, inside-out patch clamp | – | BKα/γ1, Vm 110 mV, nominally Ca2+-free | – | Hill coefficient | 0.777 ± 0.071 |
| CC[C@H](C)[C@H](NC(=O)[C@@H]1CCCN1C(=O)[C@H](CC(C)C)NC(=O)[C@H](Cc1ccccc1)NC(=O)[C@H](CCC(=O)O)NC(=O)CNC(=O)[C@@H](NC(=O)[C@H](CCC(=O)O)NC(=O)[C@H](CCC(=O)O)NC(=O)[C@H](CC(=O)O)NC(=O)[C@H](CC(C)C)NC(=O)[C@H](CCC(N)=O)NC(=O)[C@H](CC(C)C)NC(=O)[C@H](CCC(N)=O)NC(=O)[C@H](C)NC(=O)[C@H](Cc1ccccc1)NC(C)=O)[C@@H](C)O)C(=O)N[C@@H](CCC(N)=O)C(=O)N1CCC[C@H]1C(=O)N[C@@H](C)C(=O)N[C@@H](CCC(N)=O)C(N)=O | Kelch-like ECH-associated protein 1, Kelch domain (KEAP1, Homo sapiens, UniProt Q14145) | ITC | – | concentration not given | – | binding stoichiometry | 1.08 |
| O=CNc1ccc(Br)cc1C=O | Dehaloperoxidase B ferric | product, HPLC | – | together with: 5-bromoindole 500 µM, H2O2 100 µM | – | share of total products | 0.6% |
| O=C(COP(=O)(O)O)[C@@H](O)[C@H](O)[C@H](O)COP(=O)(O)O | Poly [ADP-ribose] polymerase 1 (PARP1, Homo sapiens, UniProt P09874) | thermal proteome profiling | HepG2 cell lysate | concentration not given, 57 over 37 °C, mean | reference: compound over control | thermal stability ratio | 0.533 |
| O=C(Cc1cccs1)N[C@@H]1C(=O)N2C(C(=O)[O-])=C(C[n+]3ccccc3)CS[C@H]12 | Rhomboid protease GlpG (glpG, Escherichia coli, UniProt P09391) | enzyme activity, inhibitor, gel-based chimeric protein substrate | – | – | – | IC50 | inactive |
| NC(=O)NOCCCCCCCCCCCCCCCC[P+](c1ccccc1)(c1ccccc1)c1ccccc1.O=C([O-])C(F)(F)F | MT-CYB/UQCRFS1 | complex III-dependent respiration, Seahorse XF96 | HCT-116 | 0.4 µM, 24 h | reference: control | oxygen consumption rate | 81.4% |
| CC1=C(/C=C/C(C)=C/C=C/C(C)=C/C=O)C(C)(C)CCC1 | Rhodopsin (RHO, Bos taurus, UniProt P02699, I189V) | retinal release, Trp FRET | lipid bicelles | 28 °C, I189V mutant | reference: wild-type rhodopsin | relative koff | 1.56 ± 0.02 |
| Nc1nc2c(ncn2[C@@H]2O[C@@H]3COP(=O)(O)O[C@H]4[C@@H](O)[C@H](n5cnc6c(=O)[nH]c(N)nc65)O[C@@H]4COP(=O)(O)O[C@H]3[C@H]2O)c(=O)[nH]1 | Cell cycle histidine kinase CckA, DHp-CA domains (Caulobacter vibrioides, UniProt Q9X688) | ITC | – | 12 °C, together with: AMPPNP 5 mM | – | -TΔS | -28.9 kJ/mol |
| CC(=C/C(=O)O)/C=C/C=C(\C)C1C=C2C(C)(C)CCCC2(C)O1 (stereo not drawn) | Rhodopsin (RHO, Homo sapiens, UniProt P08100, E181K) | ER retention, immunostaining co-localization, refers to: opsin with calnexin | COS-7 transfected E181K | 10.00 µM | – | Pearson correlation coefficient | 0.53 |
| NC(=O)NO | MT-CYB/UQCRFS1 | complex III-dependent respiration, Seahorse XF96 | HCT-116 | 300 µM, 24 h | reference: control | oxygen consumption rate | 88.7 ± 4.83% |
| CN1CCN(c2cc(-c3ccncc3)c(-c3ccc4ccccc4c3)nn2)CC1 | Prostaglandin D2 receptor (PTGDR, Homo sapiens, UniProt Q13258) | agonist, FLIPR | – | 12.5 µM | – | activation | 0.1% |
| C#Cc1cccc(Oc2ccc(-c3nn([C@@H]4CCCN(C(=O)C=C)C4)c4ncnc(N)c34)cc2)c1 | Cytochrome b5 type B (CYB5B, Homo sapiens, UniProt O43169) | ABPP-SILAC | – | 1 µM, 1 h | reference: DMSO | SILAC ratio | 7 |
| Cc1cc(NS(=O)(=O)c2ccc(N=NN(O)c3ccccc3)cc2)no1 | α-glucosidase, rat intestine | enzyme activity | – | 120 µg/mL, together with: 4-nitrophenyl α-D-glucopyranoside | – | inhibition | 32.5 ± 1.43% |
| CCCCC[S+]([O-])c1n[nH]c(N)n1 (stereo not drawn) | YTH domain-containing family protein 2 (YTHDF2, Homo sapiens, UniProt Q9Y5A9) | binding, affinity selection mass spectrometry | – | – | reference: other proteins in batch | log fold enrichment | 0.173 |
| NC(=O)NOCCCCCCCCCCCCCCCCCCCC[P+](c1ccccc1)(c1ccccc1)c1ccccc1.O=C([O-])C(F)(F)F | MT-CYB/UQCRFS1 | complex III-dependent respiration, Seahorse XF96 | HCT-116 | 0.5 µM, 24 h | reference: control | oxygen consumption rate | 102% |
| Cn1cc(-c2ccnc3ccccc23)c(-c2ccccn2)n1 | TGF-beta receptor type-1 (TGFBR1, Homo sapiens, UniProt P36897) | – | – | – | reference: IC50 on target over Yck2 | selectivity ratio | 1 |
| [O-][S+]1CCCCS1 (stereo not drawn) | Superoxide dismutase [Cu-Zn] (SOD1, Homo sapiens, UniProt P00441, G94A) | LC-MS | brain homogenate | 5 µM, 1 h, 37 °C | – | SOD1 dimer fraction | 1.4% |
| Cc1cccc(N(O)N=Nc2ccc(S(=O)(=O)Nc3onc(C)c3C)cc2)c1 | α-glucosidase, rat intestine | enzyme activity | – | 60 µg/mL, together with: 4-nitrophenyl α-D-glucopyranoside | – | inhibition | 12.5 ± 0.87% |
| CC(C)CC(=O)N[C@H](C(=O)N[C@H](C(=O)N[C@@H](CC(C)C)[C@@H](O)CC(=O)N[C@@H](C)C(=O)N[C@@H](CC(C)C)[C@@H](O)CC(N)=O)C(C)C)C(C)C | Cathepsin D (CTSD, Homo sapiens, UniProt P07339) | surface plasmon resonance | – | – | – | dissociation rate constant | 0.0016 s⁻¹ |
| CC(NC(=O)CCCc1ccc2ccc3cccc4ccc1c2c34)C(=O)NO (stereo not drawn) | Histone deacetylase 8 (HDAC8, Homo sapiens, UniProt Q9BY41) | ITC | Tris-HCl buffer | 288 K | – | TΔS° | 28 kJ/mol |
| O=c1nc(SCc2cc(F)cc(C(F)(F)F)c2)nc(SCc2ccc3nc(Cl)ccc3c2)[nH]1 | DNA topoisomerase 2-alpha (TOP2A, Homo sapiens, UniProt P11388) | ATPase activity | – | 15.6 µM, together with: ATP 0.025 mM | – | ATP hydrolysis rate | 0.166 µM/min and 0.249 µM/min |
| NCCS(=O)(=O)O | Sodium- and chloride-dependent taurine transporter (SLC6A6, Homo sapiens, UniProt P31641, Y138A) | binding, microscale thermophoresis | – | 7.81 µM, room temperature, together with: 50 nM labelled protein | higher = more binding | normalised MST signal | 0.0532 |
| CC[C@@H]1[C@H](F)C(=O)N[C@@H]1COc1nccc2cc(C(N)=O)c(OC)cc12 | Mixed lineage kinase domain-like protein (MLKL, Homo sapiens, UniProt Q8NB16) | ATP-site probe binding, ActivX profiling | THP-1 cell lysate | 0.01 mM, Lys1 site | – | inhibition | -3.7% |

Excerpt of the above:
| Structure (SMILES) | target | test | system | setting | scale | measurement | value |
| --- | --- | --- | --- | --- | --- | --- | --- |
| Brc1ccc2[nH]ccc2c1 | Dehaloperoxidase B ferric | peroxidase activity, substrate, HPLC | – | 10 µM, 5 min, pH 7, together with: H2O2, enzyme 500 µM | – | substrate conversion | 48.1% |
| COc1cc(-c2cncc3c2CN(C)Cc2cc(N4CCNCC4)ccc2-3)cc(OC)c1OC | Serine/threonine-protein kinase VRK2 (VRK2, Homo sapiens, UniProt Q86Y07) | kinase activity | – | 1 µM, human enzyme, together with: ATP 10 µM | reference: DMSO control | remaining activity | 101% |
| Nc1nc2c(ncn2[C@@H]2O[C@H](COP(=O)(O)O)[C@@H](O)[C@H]2O)c(=O)[nH]1 | GUK1 (Homo sapiens, UniProt Q16774, T83A) | enzyme activity, NADH-coupled | – | 31.25 µM | – | reaction rate | 7.26 s⁻¹ and 4.77 s⁻¹ and 6.69 s⁻¹ |
| O=C1OC2COC(=O)C2C=C1NC(=O)c1ccc(Cl)cc1 (stereo not drawn) | Protein lin-28 homolog A (Mus musculus, UniProt Q8K3Y3) | – | – | – | – | Hill slope | -0.6 |
